Published values from different studies.
A part holds a random share of what one study measured. Values joined by “and” are separate records of one study, mostly repeats; a detail may differ.
UniProt P10721, sequence (whole entry, unmodified, looked up): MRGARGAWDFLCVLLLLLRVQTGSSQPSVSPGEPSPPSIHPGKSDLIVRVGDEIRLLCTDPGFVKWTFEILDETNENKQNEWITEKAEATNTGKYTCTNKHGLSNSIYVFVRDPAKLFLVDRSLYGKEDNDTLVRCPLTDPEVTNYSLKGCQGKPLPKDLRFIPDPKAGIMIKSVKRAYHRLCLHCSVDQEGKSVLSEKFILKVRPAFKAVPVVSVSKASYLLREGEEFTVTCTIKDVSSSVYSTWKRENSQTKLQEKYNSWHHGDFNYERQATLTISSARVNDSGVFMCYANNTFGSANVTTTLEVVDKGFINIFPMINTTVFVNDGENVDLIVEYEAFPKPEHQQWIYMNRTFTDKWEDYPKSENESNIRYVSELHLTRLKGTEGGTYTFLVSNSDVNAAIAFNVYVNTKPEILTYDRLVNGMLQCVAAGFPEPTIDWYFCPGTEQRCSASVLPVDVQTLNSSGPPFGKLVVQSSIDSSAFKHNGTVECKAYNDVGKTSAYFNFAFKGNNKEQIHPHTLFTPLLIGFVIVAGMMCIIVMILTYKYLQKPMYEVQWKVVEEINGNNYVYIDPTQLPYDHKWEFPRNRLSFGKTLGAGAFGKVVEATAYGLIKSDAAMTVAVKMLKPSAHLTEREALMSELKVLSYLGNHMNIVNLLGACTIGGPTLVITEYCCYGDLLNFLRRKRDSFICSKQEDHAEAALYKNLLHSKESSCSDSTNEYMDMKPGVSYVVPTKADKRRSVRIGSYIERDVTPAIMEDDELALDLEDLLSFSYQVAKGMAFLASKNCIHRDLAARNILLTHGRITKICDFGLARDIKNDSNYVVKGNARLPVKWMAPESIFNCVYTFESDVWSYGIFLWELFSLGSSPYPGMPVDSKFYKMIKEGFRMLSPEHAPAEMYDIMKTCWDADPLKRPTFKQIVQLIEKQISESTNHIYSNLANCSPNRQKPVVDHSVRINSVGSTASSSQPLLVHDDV
UniProt Q9H2X6, sequence (whole entry, looked up): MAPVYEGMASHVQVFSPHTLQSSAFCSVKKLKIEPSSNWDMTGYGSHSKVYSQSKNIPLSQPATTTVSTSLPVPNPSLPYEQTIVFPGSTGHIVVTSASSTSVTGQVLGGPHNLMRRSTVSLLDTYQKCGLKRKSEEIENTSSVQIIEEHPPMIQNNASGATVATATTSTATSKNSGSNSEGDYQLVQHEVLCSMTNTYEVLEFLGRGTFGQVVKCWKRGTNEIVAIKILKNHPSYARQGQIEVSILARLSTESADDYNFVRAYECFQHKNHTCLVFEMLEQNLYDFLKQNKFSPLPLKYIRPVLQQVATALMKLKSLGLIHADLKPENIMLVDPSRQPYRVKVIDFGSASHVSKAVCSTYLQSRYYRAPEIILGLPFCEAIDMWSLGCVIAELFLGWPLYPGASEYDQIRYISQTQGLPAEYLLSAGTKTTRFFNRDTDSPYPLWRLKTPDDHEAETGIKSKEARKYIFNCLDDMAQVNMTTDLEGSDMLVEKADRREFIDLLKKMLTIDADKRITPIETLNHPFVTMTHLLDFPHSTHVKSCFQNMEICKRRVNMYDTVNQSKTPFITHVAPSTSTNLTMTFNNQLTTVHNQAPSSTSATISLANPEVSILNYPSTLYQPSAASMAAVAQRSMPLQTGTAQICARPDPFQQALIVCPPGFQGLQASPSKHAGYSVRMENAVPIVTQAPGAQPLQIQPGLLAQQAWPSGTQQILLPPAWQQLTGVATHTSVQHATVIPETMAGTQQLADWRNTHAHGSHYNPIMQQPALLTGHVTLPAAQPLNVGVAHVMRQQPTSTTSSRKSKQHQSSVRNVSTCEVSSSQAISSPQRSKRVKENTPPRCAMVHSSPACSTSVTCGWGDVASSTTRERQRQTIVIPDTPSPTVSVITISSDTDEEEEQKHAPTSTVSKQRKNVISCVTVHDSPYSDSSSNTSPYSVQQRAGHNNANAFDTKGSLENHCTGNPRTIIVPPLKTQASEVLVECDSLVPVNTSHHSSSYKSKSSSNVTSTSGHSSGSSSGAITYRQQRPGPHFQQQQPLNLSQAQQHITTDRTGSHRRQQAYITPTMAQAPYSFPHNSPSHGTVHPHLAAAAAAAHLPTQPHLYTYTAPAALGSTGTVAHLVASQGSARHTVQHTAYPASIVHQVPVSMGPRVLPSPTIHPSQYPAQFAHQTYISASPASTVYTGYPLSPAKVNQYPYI
UniProt Q00534, sequence (whole entry, looked up): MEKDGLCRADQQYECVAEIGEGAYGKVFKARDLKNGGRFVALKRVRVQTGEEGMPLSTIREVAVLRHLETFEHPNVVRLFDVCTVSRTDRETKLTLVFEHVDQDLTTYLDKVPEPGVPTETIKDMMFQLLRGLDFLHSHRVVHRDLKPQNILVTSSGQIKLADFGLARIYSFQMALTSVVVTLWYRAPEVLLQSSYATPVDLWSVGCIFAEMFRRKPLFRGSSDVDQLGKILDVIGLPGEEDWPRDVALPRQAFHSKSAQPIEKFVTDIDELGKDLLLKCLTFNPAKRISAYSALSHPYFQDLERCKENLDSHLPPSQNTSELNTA

Block 1
SMILES: O=C1NC(=O)c2c1c1c3ccccc3[nH]c1c1[nH]c3cc(Br)ccc3c21
Observed: enzyme activity
Mode: inhibitor
Tested at: 0.5 µM
Reference: control
Measurement: remaining activity
EPHB4 (Homo sapiens, UniProt P54760): 86.5%
EPHB1 (Homo sapiens, UniProt P54762): 95.5%
AXL (Homo sapiens, UniProt P30530): 82.9%
STK16 (Homo sapiens, UniProt O75716): 87.2%
Cyclin-dependent kinase 4, with cyclin D3 (CDK4, Homo sapiens, UniProt P11802): 21.1%
HIPK2 (Homo sapiens, UniProt Q9H2X6): 107%
PDPK1 (Homo sapiens, UniProt O15530): 66.1%
Cyclin-dependent kinase 6, with cyclin D3 (CDK6, Homo sapiens, UniProt Q00534): 40.2%
TSSK2 (Homo sapiens, UniProt Q96PF2): 96.9%
SRMS (Homo sapiens, UniProt Q9H3Y6): 91.5%
HIPK4 (Homo sapiens, UniProt Q8NE63): 94.1%
PHKG1 (Homo sapiens, UniProt Q16816): 40.7%
EPHA4 (Homo sapiens, UniProt P54764): 91.3%
MAPKAPK3 (Homo sapiens, UniProt Q16644): 118%
CAMK2B (Homo sapiens, UniProt Q13554): 80.3%
BLK (Homo sapiens, UniProt P51451): 83.9%
RPS6KA5 (Homo sapiens, UniProt O75582): 76.1%
RPS6KA6 (Homo sapiens, UniProt Q9UK32): 32.4%
Cyclin-dependent kinase 1, with cyclin B (CDK1, Homo sapiens, UniProt P06493): 47.8%
WNK3 (Homo sapiens, UniProt Q9BYP7): 92.3%
ABL1 (Homo sapiens, UniProt P00519): 83.3%
STK17A (Homo sapiens, UniProt Q9UEE5): 29.5%
MAP4K4 (Homo sapiens, UniProt O95819): 29.3%
DYRK3 (Homo sapiens, UniProt O43781): 94.5%

Block 2
Compound: CN(C(=O)c1ccccc1)c1cc(N(C)c2ccc3c(c2)CCc2ccc(C(=O)NCCN4CCOCC4)cc2C3=O)ccc1F
Observed: cell-free assay
Technique: competition with immobilised ligand
Tested at: 1 µM
Measurement: remaining binding
CLK1 (Homo sapiens, UniProt P49759): 86%
DYRK1A (Homo sapiens, UniProt Q13627): 100%
Ribosomal protein S6 kinase alpha-3, N-terminal kinase domain (RPS6KA3, Homo sapiens, UniProt P51812): 95%
NLK (Homo sapiens, UniProt Q9UBE8): 100%
TNIK (Homo sapiens, UniProt Q9UKE5): 100%
ERBB3 (Homo sapiens, UniProt P21860): 100%
Tyrosine-protein kinase ABL1, non-phosphorylated (ABL1, Homo sapiens, UniProt P00519, H396P): 92%
HIPK2 (Homo sapiens, UniProt Q9H2X6): 100%
CDKL1 (Homo sapiens, UniProt Q00532): 80%
AKT1 (Homo sapiens, UniProt P31749): 100%
KIT (Homo sapiens, UniProt P10721, L576P): 100%
CDKL5 (Homo sapiens, UniProt O76039): 100%
PRKG1 (Homo sapiens, UniProt Q13976): 67%
PIK3C2B (Homo sapiens, UniProt O00750): 91%
SBK3 (Homo sapiens, UniProt P0C264): 84%
HIPK1 (Homo sapiens, UniProt Q86Z02): 94%
DDR1 (Homo sapiens, UniProt Q08345): 96%
Tyrosine-protein kinase ABL1, phosphorylated (ABL1, Homo sapiens, UniProt P00519, M351T): 100%
FGFR2 (Homo sapiens, UniProt P21802): 99%
KIT (Homo sapiens, UniProt P10721, V559D/V654A): 100%
SNRK (Homo sapiens, UniProt Q9NRH2): 83%
LATS2 (Homo sapiens, UniProt Q9NRM7): 98%
KIT (Homo sapiens, UniProt P10721): 100%

Block 3
Compound: CC(=O)N[C@@H](Cc1c[nH]c2ccccc12)C(=O)N[C@@H](CCC(=O)C=[N+]=[N-])C(=O)OC(C)C
Host: C57BL/6 CES1-/- mice, EL4 tumour
Route: subcutaneous
Dose: 0.3 mg/kg/day DON equivalent
Time: 5 days
Measurement: metabolite peak intensity
UPLC-MS/MS, item: 5-hydroxyindoleacetate; EL4 tumour: 73700 a.u. and 69400 a.u. and 47500 a.u. and 130000 a.u. and 33400 a.u.
UPLC-MS/MS, item: 5-aminovalerate; EL4 tumour: 1.41e+07 a.u. and 1.88e+07 a.u. and 1.87e+07 a.u. and 1.4e+07 a.u. and 1.36e+07 a.u. and 1.25e+07 a.u.
UPLC-MS/MS metabolomics, item: gamma-glutamylphenylalanine; EL4 tumour; normalised to tissue mass: 699000 a.u. and 470000 a.u. and 790000 a.u. and 723000 a.u. and 461000 a.u. and 251000 a.u.
UPLC-MS/MS metabolomics, item: N1-methyl-2-pyridone-5-carboxamide; EL4 tumour; normalised to tissue mass; higher = more metabolite: 554000 a.u. and 507000 a.u. and 898000 a.u. and 774000 a.u. and 576000 a.u. and 920000 a.u.
UPLC-MS/MS, item: CMP; EL4 tumour: 3.02e+07 a.u. and 1.32e+07 a.u. and 2.43e+07 a.u. and 1.82e+07 a.u. and 3.44e+07 a.u. and 2.53e+07 a.u.
UPLC-MS/MS metabolomics, item: N-acetylaspartate; EL4 tumour; normalised to tissue mass; higher = more metabolite: 7.71e+08 a.u. and 4.17e+08 a.u. and 2.96e+08 a.u. and 3.56e+08 a.u. and 4.24e+08 a.u. and 5.43e+08 a.u.
UPLC-MS/MS, item: isobutyrylcarnitine; EL4, tumour; normalised to tissue mass; higher = more metabolite: 1.32e+08 a.u. and 2.96e+07 a.u. and 1.11e+08 a.u. and 2.58e+07 a.u. and 8.3e+07 a.u. and 9.74e+07 a.u.
UPLC-MS/MS, item: kynurenine; EL4, tumour; normalised to tissue mass; higher = more metabolite: 2.37e+06 a.u. and 2.46e+06 a.u. and 2.75e+06 a.u. and 1.23e+06 a.u. and 2.84e+06 a.u. and 1.35e+06 a.u.
LC-MS/MS metabolomics, item: 2'-deoxyadenosine; EL4 tumour; normalised to tissue mass; higher = more metabolite: 50900 a.u. and 41600 a.u. and 72300 a.u. and 178000 a.u. and 94800 a.u. and 56800 a.u.
UPLC-MS/MS metabolomics, item: glycine; EL4 tumour; normalised to tissue mass: 4.79e+08 a.u. and 4.19e+08 a.u. and 4.65e+08 a.u. and 3.13e+08 a.u. and 5.02e+08 a.u. and 4.76e+08 a.u.

Block 4
Target: DNA polymerase theta, ATPase domain (POLQ, Homo sapiens, UniProt O75417)
UniProt O75417, sequence (whole entry, unmodified, looked up): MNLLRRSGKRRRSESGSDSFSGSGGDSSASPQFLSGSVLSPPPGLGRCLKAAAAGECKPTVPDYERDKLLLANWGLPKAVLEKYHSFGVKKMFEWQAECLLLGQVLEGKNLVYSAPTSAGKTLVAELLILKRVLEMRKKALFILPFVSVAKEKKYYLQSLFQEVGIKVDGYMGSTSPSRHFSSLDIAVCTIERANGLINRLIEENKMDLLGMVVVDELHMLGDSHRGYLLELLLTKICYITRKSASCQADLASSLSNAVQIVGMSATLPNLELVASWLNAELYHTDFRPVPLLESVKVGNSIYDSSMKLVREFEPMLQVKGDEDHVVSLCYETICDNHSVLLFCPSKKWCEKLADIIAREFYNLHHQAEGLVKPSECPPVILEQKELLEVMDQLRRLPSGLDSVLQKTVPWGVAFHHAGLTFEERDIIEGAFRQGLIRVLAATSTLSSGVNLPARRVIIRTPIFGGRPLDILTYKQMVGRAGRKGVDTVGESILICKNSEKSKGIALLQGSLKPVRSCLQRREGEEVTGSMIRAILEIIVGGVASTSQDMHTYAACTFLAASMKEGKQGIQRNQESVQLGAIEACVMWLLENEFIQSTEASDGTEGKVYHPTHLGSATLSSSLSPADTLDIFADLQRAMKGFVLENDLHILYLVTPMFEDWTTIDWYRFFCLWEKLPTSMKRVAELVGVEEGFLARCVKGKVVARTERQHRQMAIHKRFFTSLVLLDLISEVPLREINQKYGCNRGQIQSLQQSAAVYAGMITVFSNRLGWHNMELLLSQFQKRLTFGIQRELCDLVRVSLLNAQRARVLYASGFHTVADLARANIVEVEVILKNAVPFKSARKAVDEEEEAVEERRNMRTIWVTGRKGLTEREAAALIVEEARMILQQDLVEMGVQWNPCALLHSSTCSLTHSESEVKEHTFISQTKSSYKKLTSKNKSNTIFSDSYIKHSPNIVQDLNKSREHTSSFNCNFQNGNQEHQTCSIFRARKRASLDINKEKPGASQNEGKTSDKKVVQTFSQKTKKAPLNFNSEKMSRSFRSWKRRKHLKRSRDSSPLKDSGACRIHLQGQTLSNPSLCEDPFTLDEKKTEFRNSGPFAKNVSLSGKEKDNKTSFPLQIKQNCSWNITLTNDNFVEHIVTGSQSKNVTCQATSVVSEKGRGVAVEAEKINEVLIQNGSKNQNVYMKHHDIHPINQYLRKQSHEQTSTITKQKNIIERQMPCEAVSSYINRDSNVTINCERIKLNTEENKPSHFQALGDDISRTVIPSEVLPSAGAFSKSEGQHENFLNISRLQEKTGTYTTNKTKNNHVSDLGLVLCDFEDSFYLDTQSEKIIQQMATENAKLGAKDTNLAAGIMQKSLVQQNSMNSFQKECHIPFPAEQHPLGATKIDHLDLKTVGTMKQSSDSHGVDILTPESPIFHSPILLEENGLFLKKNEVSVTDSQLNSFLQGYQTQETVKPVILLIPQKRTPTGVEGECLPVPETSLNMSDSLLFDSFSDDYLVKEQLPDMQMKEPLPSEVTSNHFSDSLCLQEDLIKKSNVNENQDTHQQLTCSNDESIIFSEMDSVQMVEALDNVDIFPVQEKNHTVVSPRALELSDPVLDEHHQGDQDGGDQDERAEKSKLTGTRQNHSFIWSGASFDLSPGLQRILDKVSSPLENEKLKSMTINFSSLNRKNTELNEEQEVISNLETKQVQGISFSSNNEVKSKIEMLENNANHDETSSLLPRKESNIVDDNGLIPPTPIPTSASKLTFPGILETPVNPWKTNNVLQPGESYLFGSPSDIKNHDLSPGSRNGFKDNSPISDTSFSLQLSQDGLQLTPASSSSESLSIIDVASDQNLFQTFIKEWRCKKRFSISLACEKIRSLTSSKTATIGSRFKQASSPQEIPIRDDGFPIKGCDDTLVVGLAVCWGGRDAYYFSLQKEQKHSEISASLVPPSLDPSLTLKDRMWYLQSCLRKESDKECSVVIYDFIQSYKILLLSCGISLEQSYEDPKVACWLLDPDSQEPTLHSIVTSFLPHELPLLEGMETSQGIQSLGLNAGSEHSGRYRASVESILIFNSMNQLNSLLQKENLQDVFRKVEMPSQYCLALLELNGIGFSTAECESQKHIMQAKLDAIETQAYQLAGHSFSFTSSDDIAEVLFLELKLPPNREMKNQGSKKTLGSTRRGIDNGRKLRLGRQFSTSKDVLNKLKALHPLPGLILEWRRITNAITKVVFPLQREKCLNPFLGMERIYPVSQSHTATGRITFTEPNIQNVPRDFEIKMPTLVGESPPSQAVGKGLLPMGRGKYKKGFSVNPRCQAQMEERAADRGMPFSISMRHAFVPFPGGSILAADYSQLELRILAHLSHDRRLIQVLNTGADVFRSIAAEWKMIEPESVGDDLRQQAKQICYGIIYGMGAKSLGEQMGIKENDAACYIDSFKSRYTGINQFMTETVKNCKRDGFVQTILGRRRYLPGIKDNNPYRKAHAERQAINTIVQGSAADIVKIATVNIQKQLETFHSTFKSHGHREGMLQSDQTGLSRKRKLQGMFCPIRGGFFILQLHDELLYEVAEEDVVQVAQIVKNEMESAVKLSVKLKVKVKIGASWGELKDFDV
Observed: enzyme activity
Mode: inhibitor
Tested at: 77 µM
Reference: untreated
Measurement: remaining activity
Cc1[nH]c(/C=C2\C(=O)Nc3ccc(S(=O)(=O)N(C)c4cccc(Cl)c4)cc32)c(C)c1C(=O)N1CCN(C)CC1: 102%
Cn1c(=O)n(C(C)(C)C#N)c2c3cc(-c4cnc5ccccc5c4)ccc3ncc21: 102% and 104% and 105%
Cc1ncc2ccccc2c1C#N: 106%
CCC1=C(C)CN(C(=O)NCCc2ccc(S(=O)(=O)NC(=O)N[C@H]3CC[C@H](C)CC3)cc2)C1=O: 97.9% and 104%
O=C(O)c1ccccc1OP(=O)(O)O: 110%
O=C(c1ccc(Nc2nccc(-c3cc4ccccc4s3)n2)cc1)N1CCC(N2CCCC2)CC1: 95.4% and 115%
C=C1[C@H](CO)[C@@H](O)C[C@@H]1n1cnc2c(=O)[nH]c(N)nc21: 92.6%
CC(C)(Sc1cc(C(C)(C)C)c(O)c(C(C)(C)C)c1)Sc1cc(C(C)(C)C)c(O)c(C(C)(C)C)c1: 99.1%
O=Nc1ccc2oc(=O)ccc2c1: 102%
CC(C)C[C@H]1C(=O)N2CCC[C@H]2[C@]2(O)O[C@](NC(=O)[C@@H]3C=C4c5cccc6[nH]c(Br)c(c56)CC4N(C)C3)(C(C)C)C(=O)N12 (stereo partly shown): 94.7%
COc1cc(NC(=O)c2ccc(-c3ccc(Cl)cc3)o2)cc(OC)c1: 96.9%
COc1ccnc2[nH]cc(C(=O)C(=O)N3CCN(C(=O)c4ccccc4)C[C@H]3C)c12: 97.1%
COc1cc(SC)ccc1C(=O)N1CCC(Cc2ccccc2)CC1: 108%
